# Measurements gathered from unrelated publications.
# Compare with care: the assays were run in different laboratories. “And” joins repeats or separate records; there may be more than shown. ± gives the spread as reported.
Compound,test,test system,setting,how to read,measurement,value
N=C(N)NCCC[C@@H]1NC(=O)[C@H](CCCCNC(=O)CN2CCN(CC(=O)O)CCN(CC(=O)O)CCN(CC(=O)O)CC2)NC(=O)[C@@H](Cc2ccccc2)NC(=O)[C@H](CC(=O)O)NC(=O)CNC1=O,,"female athymic nude Nu/Nu mice, U-87 MG xenograft","intravenous, 10 µCi, 4 h",reference: tumour over muscle,tumour to muscle ratio,6.1
CCCC[C@H](NC(=O)COCCOCCNC(=O)CN1CCN(CC(=O)O)CCN(CC(=O)O)CC1)C(=O)N[C@H]1CC(=O)NCCCC[C@@H](C(N)=O)NC(=O)[C@H](Cc2c[nH]c3ccccc23)NC(=O)[C@H](CCCNC(=N)N)NC(=O)[C@@H](Cc2ccccc2)NC(=O)[C@H](Cc2c[nH]cn2)NC1=O [copper-64 labelled],,"C57 mice, lung","intravenous, 0.37 MBq, 24 h",,tissue uptake,0.69 ± 0.17 %ID/g
N=C(N)NCCC[C@@H]1NC(=O)[C@H](CCCCNC(=O)CC[C@H](NC(=O)CC[C@H](NC(=O)CN2CCN(CC(=O)O)CCN(CC(=O)O)CCN(CC(=O)O)CC2)C(=O)N[C@@H](CCC(=O)NCCCC[C@@H]2NC(=O)[C@@H](Cc3ccccc3)NC(=O)[C@H](CC(=O)O)NC(=O)CNC(=O)[C@H](CCCNC(=N)N)NC2=O)C(=O)NCCCC[C@@H]2NC(=O)[C@@H](Cc3ccccc3)NC(=O)[C@H](CC(=O)O)NC(=O)CNC(=O)[C@H](CCCNC(=N)N)NC2=O)C(=O)NCCCC[C@@H]2NC(=O)[C@@H](Cc3ccccc3)NC(=O)[C@H](CC(=O)O)NC(=O)CNC(=O)[C@H](CCCNC(=N)N)NC2=O)NC(=O)[C@@H](Cc2ccccc2)NC(=O)[C@H](CC(=O)O)NC(=O)CNC1=O [indium-111 labelled],,"female athymic nu/nu mice, bone","intravenous, 1 h",,tissue uptake,0.93 ± 0.13 %ID/g
CSCC[C@H](NC(=O)[C@H](CC(C)C)NC(=O)[C@H](Cc1c[nH]cn1)NC(=O)CNC(=O)[C@@H](NC(=O)[C@H](C)NC(=O)[C@H](Cc1c[nH]c2ccccc12)NC(=O)[C@H](CCC(N)=O)NC(=O)CCOCCOCCOCCOCCNC(=O)CN1CCN(CC(=O)O)CCN(CC(=O)O)CCN(CC(=O)O)CC1)C(C)C)C(N)=O [indium-111 labelled],radio-HPLC,"Swiss nu/nu mice, blood","intravenous, 1 nmol, 15 min",,intact peptide,1.4% and 2.3%
N=C(N)NCCC[C@@H]1NC(=O)[C@H](CCCCNC(=S)Nc2ccc(CC3CN(CC(=O)O)CCN(CC(=O)O)CCN(CC(=O)O)CCN3CC(=O)O)cc2)NC(=O)[C@@H](Cc2ccc(O)cc2)NC(=O)[C@H](CC(=O)O)NC(=O)CNC1=O (stereo partly shown) [actinium-225 labelled],,U-87 MG tumour-bearing mice,4 h,,tumour to muscle ratio,5.7
CCCC[C@H](NC(=O)[C@H](CC(N)=O)NC(=O)[C@H](CCCNC(=N)N)NC(=O)[C@@H](NC(=O)CNC(=O)[C@H](C)NC(=O)[C@H](CCCCNC(=O)CCC(=O)O[C@@H](C(=O)O[C@H]1C[C@@]2(O)[C@@H](OC(=O)c3ccccc3)[C@@H]3[C@]4(OC(C)=O)CO[C@@H]4C[C@H](O)[C@@]3(C)C(=O)[C@H](O)C(=C1C)C2(C)C)[C@@H](NC(=O)OC(C)(C)C)c1ccccc1)NC(=O)[C@H](C)NC(=O)[C@H](CCCNC(=N)N)NC(=O)[C@@H](NC(=O)CNC(C)=O)C(C)C)C(C)C)C(=O)N[C@@H](Cc1ccccc1)C(=O)N[C@@H](CCCCNC(=O)CCC(=O)O[C@@H](C(=O)O[C@H]1C[C@@]2(O)[C@@H](OC(=O)c3ccccc3)[C@@H]3[C@]4(OC(C)=O)CO[C@@H]4C[C@H](O)[C@@]3(C)C(=O)[C@H](O)C(=C1C)C2(C)C)[C@@H](NC(=O)OC(C)(C)C)c1ccccc1)C(=O)N[C@@H](CO)C(=O)N[C@@H](CCC(=O)O)C(=O)N[C@@H](CO)C(=O)N[C@@H](Cc1ccc(O)cc1)C(=O)O,,"CD-1 mouse, plasma","intravenous, 50 mg/kg, single dose",,half-life,1.44 h
N=C(N)NCCC[C@@H]1NC(=O)[C@H](CCCCNC(=O)CNC(=O)CNC(=O)CNC(=O)CC[C@H](NC(=O)CNC(=O)CNC(=O)CNC(=O)CN2CCN(CC(=O)O)CCN(CC(=O)O)CCN(CC(=O)O)CC2)C(=O)NCC(=O)NCC(=O)NCC(=O)NCCCC[C@@H]2NC(=O)[C@@H](Cc3ccccc3)NC(=O)[C@H](CC(=O)O)NC(=O)CNC(=O)[C@H](CCCNC(=N)N)NC2=O)NC(=O)[C@@H](Cc2ccccc2)NC(=O)[C@H](CC(=O)O)NC(=O)CNC1=O [indium-111 labelled],,"female athymic nu/nu mice, eyes","intravenous, 24 h",,tissue uptake,0.32 ± 0.05 %ID/g
CC(C)C[C@H](NC(=O)CN1CCN(CC(=O)O)CCN(CC(=O)O)CC1)C(=O)N[C@@H](CC(C)C)C(=O)N[C@@H](CC(C)C)C(=O)N[C@@H](CC(C)C)C(=O)N[C@@H](CCCNC(=N)N)C(=O)N[C@H](C(=O)N[C@@H](CCCCN)C(=O)N[C@@H](CCCNC(=N)N)C(N)=O)C(C)C [copper-64 labelled],,"CD1 mouse, male, pancreas","intravenous, 15 min, blocked, unlabelled peptide 0.1 µmol",,tissue uptake,1.9 ± 0.2 %ID/g
CC(C)[C@H](NC(=O)[C@@H](NC(=O)COCCOCCNC(=O)COCCOCCNC(=O)CN1CCN(CC(=O)O)CCN(CC(=O)O)CCN(CC(=O)O)CC1)[C@@H](C)O)C(=O)N[C@@H](CCCNC(=N)N)C(=O)N[C@H](C(=O)N[C@@H](CO)C(=O)N[C@@H](C)C(=O)N[C@@H](CC(=O)O)C(=O)O)[C@@H](C)O [copper-64 labelled],PET,"male nude mice, PC-3 xenograft","iv, 22 h",,tumour tracer uptake,7710 ± 1990 Bq/mL
N=C(N)NCCC[C@@H]1NC(=O)[C@H](CCCCNC(=O)CNC(=O)CNC(=O)CNC(=O)CC[C@H](NC(=O)CNC(=O)CNC(=O)CNC(=O)CC[C@H](NC(=O)CN2CCN(CC(=O)O)CCN(CC(=O)O)CCN(CC(=O)O)CC2)C(=O)NCC(=O)NCC(=O)NCC(=O)N[C@@H](CCC(=O)NCC(=O)NCC(=O)NCC(=O)NCCCC[C@@H]2NC(=O)[C@@H](Cc3ccccc3)NC(=O)[C@H](CC(=O)O)NC(=O)CNC(=O)[C@H](CCCNC(=N)N)NC2=O)C(=O)NCC(=O)NCC(=O)NCC(=O)NCCCC[C@@H]2NC(=O)[C@@H](Cc3ccccc3)NC(=O)[C@H](CC(=O)O)NC(=O)CNC(=O)[C@H](CCCNC(=N)N)NC2=O)C(=O)NCC(=O)NCC(=O)NCC(=O)NCCCC[C@@H]2NC(=O)[C@@H](Cc3ccccc3)NC(=O)[C@H](CC(=O)O)NC(=O)CNC(=O)[C@H](CCCNC(=N)N)NC2=O)NC(=O)[C@@H](Cc2ccccc2)NC(=O)[C@H](CC(=O)O)NC(=O)CNC1=O [indium-111 labelled],,"female athymic nu/nu mice, bone","intravenous, 4 h",,tissue uptake,1.99 ± 0.15 %ID/g
O=C(O)CC[C@H](NC(=O)N[C@@H](CCCCNC(=O)CCCCCCC(=O)NCCCC[C@@H](NC(=O)[C@@H](Cc1ccccc1)NC(=O)[C@@H](Cc1ccc(O)c(I)c1)NC(=O)CCC(C(=O)O)N1CCN(CC(=O)O)CCN(CC(=O)O)CCN(CC(=O)O)CC1)C(=O)O)C(=O)O)C(=O)O (stereo partly shown) [gallium-68 labelled],,"CB-17 SCID mice, tumour xenograft","dose not given, 1 h post-injection",,tumour uptake,4.37 ± 0.64 %ID/g
CC(C)C[C@H](NC(=O)C[C@H](O)[C@H](CC(C)C)NC(=O)[C@H](Cc1c[nH]cn1)NC(=O)CNC(=O)[C@@H](NC(=O)[C@H](C)NC(=O)[C@H](Cc1c[nH]c2ccccc12)NC(=O)[C@H](CCC(N)=O)NC(=O)[C@@H](Cc1ccccc1)NC(=O)CCOCCOCCOCCNC(=O)CN1CCN(CC(=O)O)CCN(CC(=O)O)CC1)C(C)C)C(N)=O [gallium-68 labelled],microPET imaging,"nude mouse PC-3 xenograft, PC-3 tumour","intravenous, 3.7 MBq, 30 min",,mean tumour uptake,2.96 ± 0.45 %ID/g
CCCC[C@H](NC(=O)CCCCCCCNC(=O)CN1CCN(CC(=O)O)CCN(CC(=O)O)CC1)C(=O)N[C@H]1CC(=O)NCCCC[C@@H](C(N)=O)NC(=O)[C@H](Cc2c[nH]c3ccccc23)NC(=O)[C@H](CCCNC(=N)N)NC(=O)[C@@H](Cc2ccccc2)NC(=O)[C@H](Cc2c[nH]cn2)NC1=O [copper-64 labelled],,"C57 mice, liver","intravenous, 0.37 MBq, 24 h",,tissue uptake,0.73 ± 0.01 %ID/g
